# Experimental data pooled from the literature.
# “And” joins repeats or separate records; there may be more than shown. ± marks the error that the study gave.
# Dual specificity protein phosphatase 5: Dual specificity protein phosphatase 5 (Homo sapiens, UniProt Q16690)
# Chain of UniProt Q16690 (whole entry, looked up): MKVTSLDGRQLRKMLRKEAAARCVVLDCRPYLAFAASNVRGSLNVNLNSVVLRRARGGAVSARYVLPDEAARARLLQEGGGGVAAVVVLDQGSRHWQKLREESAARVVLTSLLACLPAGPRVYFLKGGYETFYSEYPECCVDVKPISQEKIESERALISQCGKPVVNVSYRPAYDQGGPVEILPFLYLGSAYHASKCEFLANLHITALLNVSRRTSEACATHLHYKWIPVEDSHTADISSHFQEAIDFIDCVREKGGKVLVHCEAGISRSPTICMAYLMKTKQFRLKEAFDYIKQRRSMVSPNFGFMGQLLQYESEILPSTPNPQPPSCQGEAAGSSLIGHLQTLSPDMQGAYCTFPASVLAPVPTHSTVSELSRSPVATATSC
# topA: DNA topoisomerase 1 (topA, Escherichia coli, UniProt P06612)
# Chain of UniProt P06612 (whole entry, looked up): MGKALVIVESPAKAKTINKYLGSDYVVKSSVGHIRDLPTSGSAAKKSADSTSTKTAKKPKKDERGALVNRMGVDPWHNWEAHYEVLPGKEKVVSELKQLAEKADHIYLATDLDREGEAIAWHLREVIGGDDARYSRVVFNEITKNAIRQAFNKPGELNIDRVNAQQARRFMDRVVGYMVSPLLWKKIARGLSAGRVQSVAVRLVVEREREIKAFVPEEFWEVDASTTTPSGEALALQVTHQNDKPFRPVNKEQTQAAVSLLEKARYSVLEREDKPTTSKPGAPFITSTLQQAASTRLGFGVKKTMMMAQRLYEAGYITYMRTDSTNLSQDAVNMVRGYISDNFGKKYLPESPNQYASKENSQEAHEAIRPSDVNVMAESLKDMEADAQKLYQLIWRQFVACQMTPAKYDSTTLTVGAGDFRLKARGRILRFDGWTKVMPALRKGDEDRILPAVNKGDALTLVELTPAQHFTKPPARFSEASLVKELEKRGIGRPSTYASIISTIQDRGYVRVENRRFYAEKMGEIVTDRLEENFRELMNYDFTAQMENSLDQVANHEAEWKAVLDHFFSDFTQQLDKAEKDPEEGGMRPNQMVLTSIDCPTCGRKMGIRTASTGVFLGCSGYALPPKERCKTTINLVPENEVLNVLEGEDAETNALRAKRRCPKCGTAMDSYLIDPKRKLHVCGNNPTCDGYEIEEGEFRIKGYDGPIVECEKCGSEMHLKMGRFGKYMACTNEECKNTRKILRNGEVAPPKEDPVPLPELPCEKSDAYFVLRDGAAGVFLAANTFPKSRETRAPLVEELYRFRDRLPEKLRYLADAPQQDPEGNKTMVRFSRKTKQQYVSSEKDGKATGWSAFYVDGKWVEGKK
# ESR2: Estrogen receptor beta (ESR2, Homo sapiens, UniProt Q92731)
# Chain of UniProt Q92731 (whole entry, looked up): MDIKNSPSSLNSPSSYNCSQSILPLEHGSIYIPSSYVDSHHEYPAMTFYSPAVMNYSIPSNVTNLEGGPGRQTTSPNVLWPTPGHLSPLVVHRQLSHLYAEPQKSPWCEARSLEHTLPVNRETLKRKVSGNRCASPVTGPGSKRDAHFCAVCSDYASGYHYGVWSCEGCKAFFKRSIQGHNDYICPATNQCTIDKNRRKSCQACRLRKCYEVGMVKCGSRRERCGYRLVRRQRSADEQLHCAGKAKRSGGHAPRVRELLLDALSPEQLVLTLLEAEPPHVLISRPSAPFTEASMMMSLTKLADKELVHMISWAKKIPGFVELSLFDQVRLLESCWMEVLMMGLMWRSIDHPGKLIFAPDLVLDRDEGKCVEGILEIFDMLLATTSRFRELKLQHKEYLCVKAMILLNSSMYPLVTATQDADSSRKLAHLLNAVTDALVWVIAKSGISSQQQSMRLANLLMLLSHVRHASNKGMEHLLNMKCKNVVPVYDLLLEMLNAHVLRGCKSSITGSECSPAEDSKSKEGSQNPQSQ
# Proteasome component C5/PSMB5 chymotrypsin-like site: Proteasome component C5/PSMB5, chymotrypsin-like site (Homo sapiens, UniProt P20618+P28074)
# Chain of UniProt P28074 (whole entry, looked up): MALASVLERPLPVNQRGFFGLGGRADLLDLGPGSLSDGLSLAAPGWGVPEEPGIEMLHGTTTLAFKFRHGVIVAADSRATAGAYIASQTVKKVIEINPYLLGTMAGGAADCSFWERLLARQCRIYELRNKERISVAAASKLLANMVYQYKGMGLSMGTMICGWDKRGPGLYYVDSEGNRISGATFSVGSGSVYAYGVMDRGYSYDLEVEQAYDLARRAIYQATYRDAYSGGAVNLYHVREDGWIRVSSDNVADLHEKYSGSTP
# Chain of UniProt P20618 (whole entry, looked up): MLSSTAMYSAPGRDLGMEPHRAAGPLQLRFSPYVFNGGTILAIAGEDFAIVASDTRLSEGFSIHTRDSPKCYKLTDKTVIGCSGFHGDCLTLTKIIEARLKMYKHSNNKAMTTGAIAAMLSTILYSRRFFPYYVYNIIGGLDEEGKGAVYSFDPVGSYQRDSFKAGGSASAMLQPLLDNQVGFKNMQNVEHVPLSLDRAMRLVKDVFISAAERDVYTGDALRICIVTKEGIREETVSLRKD
# Genome polyprotein protease: Genome polyprotein, protease (dengue virus type 2, UniProt P29990)
# ALPL: Alkaline phosphatase, tissue-nonspecific isozyme (ALPL, Homo sapiens, UniProt P05186)
# Chain of UniProt P05186 (whole entry, looked up): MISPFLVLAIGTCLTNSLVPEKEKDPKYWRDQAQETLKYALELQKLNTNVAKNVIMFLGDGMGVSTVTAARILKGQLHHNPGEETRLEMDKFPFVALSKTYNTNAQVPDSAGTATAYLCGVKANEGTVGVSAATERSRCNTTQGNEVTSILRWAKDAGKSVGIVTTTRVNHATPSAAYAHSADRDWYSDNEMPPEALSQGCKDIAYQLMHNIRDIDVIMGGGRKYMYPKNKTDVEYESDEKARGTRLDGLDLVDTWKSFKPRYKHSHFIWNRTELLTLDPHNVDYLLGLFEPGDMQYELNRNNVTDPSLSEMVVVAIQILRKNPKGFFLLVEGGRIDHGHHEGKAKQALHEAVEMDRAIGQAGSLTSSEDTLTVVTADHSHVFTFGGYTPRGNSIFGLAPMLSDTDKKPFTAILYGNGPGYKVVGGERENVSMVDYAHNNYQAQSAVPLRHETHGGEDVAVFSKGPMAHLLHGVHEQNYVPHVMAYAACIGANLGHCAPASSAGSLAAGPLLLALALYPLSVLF
# Genome polyprotein NS2B-NS3 protease: Genome polyprotein, NS2B-NS3 protease (ZIKV, UniProt A0A024B7W1)
# Chain of UniProt Q6B856 (whole entry, looked up): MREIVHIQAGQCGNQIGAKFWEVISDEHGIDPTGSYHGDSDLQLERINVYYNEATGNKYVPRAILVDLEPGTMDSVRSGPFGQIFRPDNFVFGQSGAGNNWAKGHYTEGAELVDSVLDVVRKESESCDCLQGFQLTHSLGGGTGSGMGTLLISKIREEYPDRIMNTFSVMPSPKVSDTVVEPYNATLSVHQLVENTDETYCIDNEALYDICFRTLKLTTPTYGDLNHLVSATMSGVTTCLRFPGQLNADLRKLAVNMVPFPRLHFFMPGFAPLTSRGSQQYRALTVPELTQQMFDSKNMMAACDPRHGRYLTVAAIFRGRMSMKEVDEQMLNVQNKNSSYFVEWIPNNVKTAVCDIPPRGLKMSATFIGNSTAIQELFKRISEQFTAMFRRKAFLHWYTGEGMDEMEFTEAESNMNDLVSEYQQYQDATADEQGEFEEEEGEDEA
# Chain of UniProt Q8I6U4 (whole entry, looked up): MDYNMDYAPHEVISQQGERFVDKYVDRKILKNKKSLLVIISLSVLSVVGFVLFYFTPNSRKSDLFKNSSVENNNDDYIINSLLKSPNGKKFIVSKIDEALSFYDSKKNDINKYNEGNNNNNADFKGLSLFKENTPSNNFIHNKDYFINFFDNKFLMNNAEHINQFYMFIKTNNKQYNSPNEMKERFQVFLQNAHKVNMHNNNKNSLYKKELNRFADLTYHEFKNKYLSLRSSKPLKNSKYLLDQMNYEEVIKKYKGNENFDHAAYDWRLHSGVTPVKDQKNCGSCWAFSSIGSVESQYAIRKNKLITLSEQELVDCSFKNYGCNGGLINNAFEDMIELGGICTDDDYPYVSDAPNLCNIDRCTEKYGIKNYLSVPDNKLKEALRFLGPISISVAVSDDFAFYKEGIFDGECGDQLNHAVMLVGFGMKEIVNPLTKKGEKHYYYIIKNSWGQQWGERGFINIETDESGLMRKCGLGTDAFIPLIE
# Chain of UniProt O94782 (whole entry, looked up): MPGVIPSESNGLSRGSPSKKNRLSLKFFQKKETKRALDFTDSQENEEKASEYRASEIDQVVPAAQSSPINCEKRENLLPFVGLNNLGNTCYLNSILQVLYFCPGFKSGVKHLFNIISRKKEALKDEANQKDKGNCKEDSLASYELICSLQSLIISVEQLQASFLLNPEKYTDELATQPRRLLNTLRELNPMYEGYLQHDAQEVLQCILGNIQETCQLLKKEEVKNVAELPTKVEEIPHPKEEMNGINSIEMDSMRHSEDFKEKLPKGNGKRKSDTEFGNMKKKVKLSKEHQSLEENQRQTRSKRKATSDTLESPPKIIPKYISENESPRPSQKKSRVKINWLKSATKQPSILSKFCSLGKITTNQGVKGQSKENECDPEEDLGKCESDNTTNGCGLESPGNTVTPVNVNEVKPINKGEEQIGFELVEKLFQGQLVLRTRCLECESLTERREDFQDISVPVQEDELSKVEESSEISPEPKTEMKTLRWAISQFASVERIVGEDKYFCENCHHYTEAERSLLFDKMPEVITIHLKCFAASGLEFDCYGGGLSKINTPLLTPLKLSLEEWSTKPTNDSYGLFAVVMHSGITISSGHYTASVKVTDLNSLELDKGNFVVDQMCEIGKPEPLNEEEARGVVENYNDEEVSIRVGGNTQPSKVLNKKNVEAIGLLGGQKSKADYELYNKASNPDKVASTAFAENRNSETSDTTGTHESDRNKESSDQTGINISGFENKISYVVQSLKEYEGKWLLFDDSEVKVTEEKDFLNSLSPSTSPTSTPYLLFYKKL
# Chain of UniProt Q8WTS6 (whole entry, looked up): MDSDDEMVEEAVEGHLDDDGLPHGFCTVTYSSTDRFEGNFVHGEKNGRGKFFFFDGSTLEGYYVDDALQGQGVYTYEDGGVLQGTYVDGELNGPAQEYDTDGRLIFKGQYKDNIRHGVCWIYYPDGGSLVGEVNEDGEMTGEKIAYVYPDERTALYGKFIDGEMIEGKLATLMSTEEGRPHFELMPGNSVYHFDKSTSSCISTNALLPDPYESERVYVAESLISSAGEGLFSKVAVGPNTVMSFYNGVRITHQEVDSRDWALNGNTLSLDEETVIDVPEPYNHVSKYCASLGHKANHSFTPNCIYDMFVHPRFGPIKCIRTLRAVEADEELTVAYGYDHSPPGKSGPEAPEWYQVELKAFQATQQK
Substance,target,test,system,conditions,IC50
N[C@H](C(=O)O)[C@@H]1CC(Br)=NO1,"CTP synthase (Trypanosoma brucei brucei, UniProt Q4GZ95)","enzyme activity, inhibitor, coupled spectrophotometric",,pre-incubated with enzyme,0.098 ± 0.01 µM
O=C1OC2(c3cc(Cl)c(O)cc3Oc3cc(O)c(Cl)cc32)c2ccccc21,Dual specificity protein phosphatase 5,phosphatase activity,,"30 min, without DTT, with: pNPP",206 ± 4.6 µM
COc1cc(C2CCCCc3c2ccc(OC)c3OP(=O)(O)O)cc(OC)c1OC (stereo not shown),"Tubulin alpha-1B chain/TUBB2B (Bos taurus, UniProt P81947+Q6B856)","tubulin polymerization, inhibitor, turbidimetry",,"20 min, 30 °C, with: 10 µM tubulin",> 20 µM
geissoschizine methyl ether,rat nicotinic acetylcholine receptor,"ion current, inhibitor",rat hippocampal neurons,with: acetylcholine 1 mM,1.3 µM
CCOC(=O)c1cn2c3c(c(F)c(F)cc3c1=O)Oc1cc(C(F)(F)F)ccc1-2,topA,,,,> 125 µM
Fc1ccc(C(OCCN2CCN(CCCc3ccccc3)CC2)c2ccc(F)cc2)cc1,"Dopamine transporter (Schistosoma mansoni, UniProt E9LD23)",,,,3.08 ± 0.5 µM
Cc1cc(O)ccc1-c1ccc(-c2ccc(O)cc2C)[se]1,ESR2,antagonist,HEK293T,with: estradiol 10 nM,0.3 µM
O=S(=O)(O)Oc1ccc(-c2ccc(Cl)cc2)c(Cl)c1,"SULT1E1 (Homo sapiens, UniProt P49888)","enzyme activity, inhibitor, radiometric",,pH 7.4,> 10 µM
COc1ccc(C[C@H](NC(=O)[C@H](C)NC(=O)c2ccco2)C(=O)N[C@@H](CC(C)C)C(=O)C(=O)Nc2ccccc2)cc1,Proteasome component C5/PSMB5 chymotrypsin-like site,"enzyme activity in cells, inhibitor",,,0.716 µM
Oc1ccc(-c2c[se]cc2-c2ccc(O)cc2)cc1,ESR2,antagonist,HEK293T,with: estradiol 10 nM,0.475 µM
COc1ccc(C[C@H](NC(=O)[C@H](C)NC(=O)OCc2ccccc2)C(=O)N[C@@H](CC(C)C)C(=O)C(=O)Nc2ccccc2)cc1,Proteasome component C5/PSMB5 chymotrypsin-like site,"enzyme activity in cells, inhibitor",,,1.03 µM
CN1CCC(Oc2ccc(Cl)cc2C(=O)Nc2ccc([N+](=O)[O-])cc2Cl)CC1,Genome polyprotein protease,"enzyme activity, inhibitor, FRET",,,25.9 µM
COc1ccc(OC)c(S(=O)(=O)Nc2ccc(O)c(Sc3ncn[nH]3)c2)c1,ALPL,"enzyme activity, inhibitor",,,8.45 µM
C/C=C(\NC(=O)[C@H](C)NC(=O)CCC)C(=O)N[C@@H]1C(=O)N[C@@H](CC(C)C)C(=O)N[C@H]2CC[C@@H](O)N(C2=O)[C@@H](Cc2ccccc2)C(=O)N(C)[C@@H](Cc2ccc(O)cc2)C(=O)N[C@@H](C(C)C)C(=O)O[C@@H]1C,"CELA1 (Sus scrofa, UniProt P00772)","enzyme activity, inhibitor",,with preincubation,0.54 µM
C=C1C[C@H](C)C[C@@H]2CC=C[C@@H](C/C=C\C(=O)O[C@H]([C@@H](O)/C=C/[C@@H]3CC(C)=CCO3)C[C@@H]3O[C@H]3[C@@H](O)C1)O2,"Tubulin beta chain, microtubules (Bos taurus, UniProt Q6B856)",binding,bovine microtubules,with: [3H]peloruside A,~1 µM
[Cl-].[Na+],"OXA-48 (Klebsiella pneumoniae, UniProt Q6XEC0, del214-217/S212D)","enzyme activity, inhibitor",,"pH 7.2, with preincubation",97000 µM
O=C([O-])c1ccccc1-c1c2cc(Br)c(=O)cc-2oc2[c]([Hg+])c([O-])c(Br)cc12.[Na+].[Na+].[OH-],Dual specificity protein phosphatase 5,phosphatase activity,,"60 min, without DTT, with: pNPP",4.1 ± 0.1 µM
O=C(NC1CCCc2ccccc21)c1ccc(-c2ccccc2)cc1 (stereo not shown),"TRPM8 (Homo sapiens, UniProt Q7Z2W7)","calcium signal, antagonist, fluorescence",,,55 µM
C/C=C1\NC(=O)[C@@H](NC(=O)[C@@H](NC(=O)C/C(=C/Cl)CC)C(C)C)[C@@H](C)OC(=O)[C@H](C(C)C)NC(=O)[C@H](Cc2ccc(O)cc2)N(C)C(=O)[C@H](Cc2ccccc2)N2C(=O)[C@H](CC[C@H]2O)NC1=O,"Chymotrypsinogen B (Homo sapiens, UniProt P17538)","enzyme activity, inhibitor, fluorescence",,pH 7.4,0.542 µM
O=S(=O)(O)Oc1ccc(-c2ccc(Cl)cc2Cl)cc1Cl,"SULT2A1 (Homo sapiens, UniProt Q06520)","enzyme activity, inhibitor, radiometric",,pH 7.4,> 100 µM
O=[N+]([O-])CC1C(c2ccc3ccccc3n2)=CN(Cc2ccc(Cl)cc2)c2ccccc21 (stereo not shown),"virF (Shigella flexneri, UniProt P0A2T1)","reporter gene expression, inhibitor","Escherichia coli, virB-lacZ reporter strain","3 h, 37 °C, 6.2% DMSO, with: 1 mM IPTG",80 µM
O=C1O[C@H]2[C@@H]3OC(=O)c4cc(O)c(O)c(O)c4-c4c(O)c(O)c5oc(=O)c6c(c(O)c(O)c7oc(=O)c4c5c76)-c4c(cc(O)c(O)c4O)C(=O)OC[C@H]3OC(O)[C@@H]2OC(=O)c2cc(O)c(O)c(O)c2-c2c1cc(O)c(O)c2O (mixture of isomers),"ALKBH2 (Homo sapiens, UniProt Q6NS38)","3-methylcytosine repair, inhibitor, HPLC",,"1 h, 37 °C, with: ssDNA 16mer 5 µM",8.1 µM
O=C1C2CC=CCC2C(=O)N1c1n[nH]c(Cc2ccccc2)n1 (stereo not shown),ALPL,"enzyme activity, inhibitor, luminescence",,"with: CDP-star substrate, 100 mM DEA",0.236 µM
CCCCCc1cc(O)cc(OC(=O)c2c(O)cc(O)cc2CCCCC)c1,topA,"DNA relaxation, inhibitor",,"30 min, 37 °C, with: supercoiled pBAD/Thio plasmid",500 µM
O=C(O)c1ccccc1-c1c2ccc(=O)c([As]3SCCS3)c-2oc2c([As]3SCCS3)c(O)ccc12,"PTPN1 (Homo sapiens, UniProt P18031, P87C)","enzyme activity, inhibitor",,"120 min pre-incubation, with: pNPP substrate",~0.12 µM
O=C(OC(C(F)(F)F)C(F)(F)F)N1CCN(Cc2cccc(Oc3ccccc3)c2)CC1,"Abhd6 (Mus musculus, UniProt Q8R2Y0)",competitive ABPP,mouse brain membrane proteome,,0.107 µM
CCOP(=O)(OCC)Oc1nc(Cl)c(Cl)cc1Cl,"muscarinic receptors, rat",radioligand displacement,aging cortex membranes,"90 min, 21 °C, with: 1 nM [3H]oxotremorine-M",0.017 µM
CC(C)C[C@H](NC(=O)[C@H](C)N)C(=O)N[C@@H](C)C(=O)N[C@@H](Cc1c[nH]c2ccccc12)C(=O)N[C@@H](Cc1c[nH]c2ccccc12)C(=O)N[C@@H](C)C(=O)N[C@@H](C)C(=O)O,"Transcriptional regulator ComR (Streptococcus mutans serotype c, UniProt Q8DWI6)",,Streptococcus mutans,,11 µM
CCCCCCCCCCCCCCCCCCCCCCCCC(=O)O,"Gag-Pol polyprotein, reverse transcriptase (gag-pol, Human immunodeficiency virus 1, UniProt P03366)","enzyme activity, inhibitor, absorbance",,,> 1000 µM
O=C([O-])c1ccccc1-c1c2cc(Br)c(=O)cc-2oc2[c]([Hg+])c([O-])c(Br)cc12.[Na+].[Na+].[OH-],"SETD7 (Homo sapiens, UniProt Q8WTS6)","enzyme activity, inhibitor",,,28 µM
NCc1ccc(-c2ncc(NCC3CCNCC3)nc2-c2ccc(-c3ccoc3)cc2)cc1F,Genome polyprotein NS2B-NS3 protease,inhibitor,Zika virus,,5.3 µM
Clc1ccc(-c2nn3c(COc4cc(Cl)c(OCc5nnc6sc(-c7ccc(Cl)cc7)nn56)cc4Cl)nnc3s2)cc1,Genome polyprotein NS2B-NS3 protease,"enzyme activity, inhibitor",Zika virus,"pH 8.0, with: 20 µM Pyr-RTKR-AMC",0.97 µM
CN1C(=O)[C@]23SS[C@@]1(C)C(=O)N2[C@H]1Nc2ccccc2[C@@]1([C@@]12c4ccccc4N[C@@H]1N1C(=O)[C@@]4(C)SS[C@]1(C(=O)N4C)[C@H]2O)[C@@H]3O,"EZH1 (Homo sapiens, UniProt Q92800)","methyltransferase activity, inhibitor",,with: 1 µM [3H]SAM,> 10 µM
Phoxim oxon,rat liver carboxylesterase,"enzyme activity, inhibitor","rat, postnatal day 12, liver homogenate",with: p-nitrophenyl valerate,0.0002 µM
Cc1ccc(C)c(/C=C/c2cc(C)ccc2C)c1,topA,"enzyme activity, inhibitor",,,> 250 µM
Cc1sc2nc(-c3ccc(O)c(F)c3)[nH]c(=O)c2c1C,"Gag-Pol polyprotein, reverse transcriptase RNase H (gag-pol, Human immunodeficiency virus 1, UniProt P03366)","RNase H activity, inhibitor, fluorescent RNA/DNA hybrid",,,> 50 µM
CC[C@H](C)[C@H](NC(=O)[C@H](CCSC)NC(=O)[C@@H](N)Cc1ccccc1)C(=O)N[C@@H](C)C(=O)N[C@@H](Cc1ccccc1)C(=O)N[C@H](C(=O)N[C@@H](CO)C(=O)N[C@@H](CS)C(=O)N[C@@H](Cc1ccccc1)C(=O)N[C@@H](C)C(=O)O)[C@@H](C)CC,"HLA class I histocompatibility antigen, A alpha chain, allele A*02:03 (Homo sapiens, UniProt P04439)","peptide binding, radiolabelled peptide competition",,with: radiolabelled standard peptide,0.056 µM
C[C@@H]1C[C@H]2[C@@H]3CCC4=CC(=O)C=C[C@]4(C)[C@@]3(Cl)[C@@H](O)C[C@]2(C)[C@@]1(OC(=O)c1ccco1)C(=O)CCl,"ABCC1 (Homo sapiens, UniProt P33527)","efflux, inhibitor, flow cytometry",SupT1 cells overexpressing ABCC1,with: rhodamine B hexyl ester 500 nM,2.2 ± 1.1 µM
NCc1ccc(-c2ncc(OCCN3CCNCC3)nc2-c2ccc(CN)cc2)cc1,Genome polyprotein NS2B-NS3 protease,inhibitor,Zika virus,,> 10 µM
FC(F)(F)c1cccc(-n2cc(COc3ccnc4cc(Cl)ccc34)nn2)c1,"FP2A (Plasmodium falciparum, UniProt Q8I6U4)","enzyme activity, inhibitor, fluorescence",,"pH 5.5, with preincubation",26.6 µM
CN=c1scc(-c2ccccc2F)n1/N=C/c1ccc[nH]1,"Luciferin 4-monooxygenase (Photinus pyralis, UniProt P08659)","enzyme activity, inhibitor",purified enzyme,with: ATP and D-luciferin at Km (10 µM),0.04 ± 0.01 µM
CC(C)(O/N=C(\C(=O)N[C@@H]1C(=O)N2C(C(=O)[O-])=C(C[n+]3ccccc3)CS[C@H]12)c1csc(N)n1)C(=O)O,"Penicillin-binding protein 1 (Staphylococcus aureus, UniProt Q2FZ94)","binding, Bocillin FL competition","Staphylococcus aureus, ATCC 29213, membranes",with: Bocillin FL 100 µM,2.93 µM
O=C1c2ccccc2C(=O)c2oc(-c3cccnc3)nc21,"USP1 (Homo sapiens, UniProt O94782)","enzyme activity, inhibitor",,"30 °C, with: UAF1, diubiquitin substrate",1.69 µM
O=c1c(O)c(-c2cc(O)c(O)c(O)c2)oc2cc(O)cc(O)c12,"Cell division cycle 7-related protein kinase, with DBF4 (CDC7, Homo sapiens, UniProt O00311)","enzyme activity, inhibitor, ADP-Glo luminescence",,with: ATP 12.5 µM,12 ± 2.55 µM
Oc1c(Br)cccc1-c1nc2cc3nc4ccccc4nc3cc2[nH]1,Genome polyprotein protease,"enzyme activity, inhibitor, fluorescence",,pH 8.5,92.7 µM
CC(=O)c1ccc(-c2nc(OCC3CCNCC3)cnc2-c2ccc(CN)cc2)cc1,Genome polyprotein NS2B-NS3 protease,inhibitor,Zika virus,,3.2 µM and 3.16 µM
